Results collected from several papers.
Numbered parts are unrelated; each lists some results of a single study.
Sequence of UniProt P00519 (whole entry, unmodified, looked up): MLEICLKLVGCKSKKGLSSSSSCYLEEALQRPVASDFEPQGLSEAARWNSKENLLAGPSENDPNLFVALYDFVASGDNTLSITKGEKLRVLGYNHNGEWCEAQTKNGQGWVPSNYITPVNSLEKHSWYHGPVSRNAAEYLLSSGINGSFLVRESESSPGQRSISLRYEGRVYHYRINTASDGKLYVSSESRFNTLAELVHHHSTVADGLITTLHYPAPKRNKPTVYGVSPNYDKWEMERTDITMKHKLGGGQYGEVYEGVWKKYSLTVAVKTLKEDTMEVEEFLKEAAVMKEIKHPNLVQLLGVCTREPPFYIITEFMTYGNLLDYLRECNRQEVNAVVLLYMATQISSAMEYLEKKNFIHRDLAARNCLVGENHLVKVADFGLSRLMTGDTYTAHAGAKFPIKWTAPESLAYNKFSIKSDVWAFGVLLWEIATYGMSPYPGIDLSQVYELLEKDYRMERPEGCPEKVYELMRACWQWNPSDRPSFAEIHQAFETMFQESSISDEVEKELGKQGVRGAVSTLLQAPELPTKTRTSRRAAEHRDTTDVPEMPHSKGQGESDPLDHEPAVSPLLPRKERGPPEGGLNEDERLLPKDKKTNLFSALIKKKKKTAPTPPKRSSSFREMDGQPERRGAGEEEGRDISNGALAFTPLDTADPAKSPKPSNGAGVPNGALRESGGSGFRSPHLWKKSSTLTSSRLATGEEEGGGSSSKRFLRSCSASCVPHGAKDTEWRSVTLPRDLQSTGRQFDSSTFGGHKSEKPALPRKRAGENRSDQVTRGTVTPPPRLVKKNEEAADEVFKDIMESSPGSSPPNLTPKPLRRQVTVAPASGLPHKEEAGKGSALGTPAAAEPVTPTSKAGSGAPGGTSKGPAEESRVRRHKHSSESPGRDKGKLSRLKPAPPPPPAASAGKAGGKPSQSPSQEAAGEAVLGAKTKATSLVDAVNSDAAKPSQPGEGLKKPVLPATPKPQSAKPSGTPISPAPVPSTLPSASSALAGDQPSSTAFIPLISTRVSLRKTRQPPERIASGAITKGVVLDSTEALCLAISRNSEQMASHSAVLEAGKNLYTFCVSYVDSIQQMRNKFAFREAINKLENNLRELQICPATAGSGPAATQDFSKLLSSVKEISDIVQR
Sequence of UniProt Q9BYP7 (whole entry, looked up): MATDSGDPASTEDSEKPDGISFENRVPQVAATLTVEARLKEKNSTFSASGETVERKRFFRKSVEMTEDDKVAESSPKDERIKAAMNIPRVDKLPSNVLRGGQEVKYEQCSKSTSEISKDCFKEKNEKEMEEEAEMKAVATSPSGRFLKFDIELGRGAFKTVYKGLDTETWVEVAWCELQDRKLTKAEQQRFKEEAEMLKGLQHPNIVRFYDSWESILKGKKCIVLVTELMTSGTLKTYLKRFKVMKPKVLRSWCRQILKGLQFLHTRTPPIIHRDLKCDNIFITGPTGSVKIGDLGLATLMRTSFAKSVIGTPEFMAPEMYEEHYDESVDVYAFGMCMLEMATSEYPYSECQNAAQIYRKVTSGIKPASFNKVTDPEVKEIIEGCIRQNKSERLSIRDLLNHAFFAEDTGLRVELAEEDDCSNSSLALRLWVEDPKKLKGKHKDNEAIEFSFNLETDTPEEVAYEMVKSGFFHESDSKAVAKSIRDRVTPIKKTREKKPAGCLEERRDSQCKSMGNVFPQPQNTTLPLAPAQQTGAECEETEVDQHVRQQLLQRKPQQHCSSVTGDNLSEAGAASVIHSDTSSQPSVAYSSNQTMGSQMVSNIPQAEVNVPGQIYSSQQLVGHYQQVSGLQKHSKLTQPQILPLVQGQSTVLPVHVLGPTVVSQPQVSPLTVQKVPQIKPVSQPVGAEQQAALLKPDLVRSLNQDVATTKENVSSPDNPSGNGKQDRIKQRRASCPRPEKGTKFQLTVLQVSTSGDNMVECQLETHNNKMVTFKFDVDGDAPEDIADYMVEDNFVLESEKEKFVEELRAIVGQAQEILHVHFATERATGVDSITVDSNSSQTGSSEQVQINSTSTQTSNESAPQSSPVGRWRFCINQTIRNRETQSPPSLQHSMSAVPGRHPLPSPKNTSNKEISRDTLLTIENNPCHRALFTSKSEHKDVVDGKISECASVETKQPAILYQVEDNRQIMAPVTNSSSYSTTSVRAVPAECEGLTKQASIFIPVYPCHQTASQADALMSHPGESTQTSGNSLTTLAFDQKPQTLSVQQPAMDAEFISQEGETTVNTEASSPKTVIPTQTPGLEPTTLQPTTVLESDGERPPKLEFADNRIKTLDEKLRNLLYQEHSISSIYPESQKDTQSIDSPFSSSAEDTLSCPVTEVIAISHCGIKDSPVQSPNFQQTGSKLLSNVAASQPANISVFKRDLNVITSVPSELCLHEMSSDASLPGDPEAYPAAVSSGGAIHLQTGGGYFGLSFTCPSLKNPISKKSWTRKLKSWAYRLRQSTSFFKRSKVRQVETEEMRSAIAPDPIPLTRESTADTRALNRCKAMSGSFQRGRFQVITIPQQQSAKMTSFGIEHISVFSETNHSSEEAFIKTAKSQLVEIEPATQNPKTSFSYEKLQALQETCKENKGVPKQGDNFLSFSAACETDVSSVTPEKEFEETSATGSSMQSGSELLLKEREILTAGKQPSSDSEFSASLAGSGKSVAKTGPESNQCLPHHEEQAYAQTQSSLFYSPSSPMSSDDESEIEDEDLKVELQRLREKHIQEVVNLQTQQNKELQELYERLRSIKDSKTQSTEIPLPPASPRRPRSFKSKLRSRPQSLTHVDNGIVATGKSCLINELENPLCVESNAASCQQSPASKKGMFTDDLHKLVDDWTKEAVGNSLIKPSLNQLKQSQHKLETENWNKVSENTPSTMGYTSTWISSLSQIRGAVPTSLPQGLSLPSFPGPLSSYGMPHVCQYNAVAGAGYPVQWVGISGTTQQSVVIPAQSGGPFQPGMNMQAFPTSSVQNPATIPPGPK
Sequence of UniProt O75716 (whole entry, looked up): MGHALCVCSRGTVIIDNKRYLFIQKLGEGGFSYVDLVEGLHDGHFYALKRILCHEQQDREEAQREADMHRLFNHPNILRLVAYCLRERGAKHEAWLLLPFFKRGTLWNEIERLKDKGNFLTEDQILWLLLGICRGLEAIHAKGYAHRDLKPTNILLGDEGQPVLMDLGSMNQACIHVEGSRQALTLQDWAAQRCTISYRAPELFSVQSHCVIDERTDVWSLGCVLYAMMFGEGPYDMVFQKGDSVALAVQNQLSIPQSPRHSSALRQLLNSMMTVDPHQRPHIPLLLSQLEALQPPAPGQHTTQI
Sequence of UniProt Q9H3Y6 (whole entry, looked up): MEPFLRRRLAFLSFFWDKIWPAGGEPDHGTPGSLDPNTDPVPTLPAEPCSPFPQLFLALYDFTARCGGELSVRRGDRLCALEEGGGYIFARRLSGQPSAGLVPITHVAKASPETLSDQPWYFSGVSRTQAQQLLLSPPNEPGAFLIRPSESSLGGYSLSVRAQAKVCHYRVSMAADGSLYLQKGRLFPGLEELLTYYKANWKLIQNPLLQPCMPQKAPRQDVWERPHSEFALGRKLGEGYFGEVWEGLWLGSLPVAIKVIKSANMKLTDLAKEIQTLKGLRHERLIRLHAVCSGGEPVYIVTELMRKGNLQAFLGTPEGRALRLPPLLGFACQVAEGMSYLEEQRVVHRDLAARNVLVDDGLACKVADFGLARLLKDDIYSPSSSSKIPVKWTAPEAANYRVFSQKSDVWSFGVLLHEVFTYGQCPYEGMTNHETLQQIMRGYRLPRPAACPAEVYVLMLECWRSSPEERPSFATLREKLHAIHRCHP
Sequence of UniProt O75582 (whole entry, looked up): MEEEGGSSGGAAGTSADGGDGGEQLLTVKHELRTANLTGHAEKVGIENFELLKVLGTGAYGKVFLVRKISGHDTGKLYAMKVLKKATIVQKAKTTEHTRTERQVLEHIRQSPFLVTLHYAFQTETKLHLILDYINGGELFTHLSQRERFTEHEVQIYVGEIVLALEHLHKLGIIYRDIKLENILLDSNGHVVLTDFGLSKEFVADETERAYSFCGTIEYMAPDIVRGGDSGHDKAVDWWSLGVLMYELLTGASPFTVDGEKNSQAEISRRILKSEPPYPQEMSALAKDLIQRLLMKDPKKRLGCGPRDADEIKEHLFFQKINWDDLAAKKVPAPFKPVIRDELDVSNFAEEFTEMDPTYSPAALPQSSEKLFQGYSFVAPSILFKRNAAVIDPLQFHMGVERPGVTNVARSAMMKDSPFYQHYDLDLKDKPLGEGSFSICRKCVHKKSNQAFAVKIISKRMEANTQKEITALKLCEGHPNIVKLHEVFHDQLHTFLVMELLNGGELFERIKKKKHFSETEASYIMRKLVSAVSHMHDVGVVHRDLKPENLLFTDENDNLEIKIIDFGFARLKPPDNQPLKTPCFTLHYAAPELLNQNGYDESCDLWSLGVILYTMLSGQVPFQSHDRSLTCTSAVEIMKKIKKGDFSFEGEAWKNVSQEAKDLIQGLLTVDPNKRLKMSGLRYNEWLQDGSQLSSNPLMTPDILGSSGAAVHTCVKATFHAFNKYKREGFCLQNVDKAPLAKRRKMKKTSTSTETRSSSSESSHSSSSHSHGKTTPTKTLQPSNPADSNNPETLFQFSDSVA

Series 1
SMILES: O=c1cc(N2CCOCC2)oc2c(-c3ccccc3)cccc12
Effect on: enzyme activity
Mode: inhibitor
Concentration: 0.5 µM
Baseline: control
Endpoint: remaining activity
target = RPS6KA5 (Homo sapiens, UniProt O75582); value = 99.5%
target = MAPKAPK3 (Homo sapiens, UniProt Q16644); value = 101%
target = MAP4K4 (Homo sapiens, UniProt O95819); value = 93.5%
target = WNK3 (Homo sapiens, UniProt Q9BYP7); value = 89.2%
target = EPHB4 (Homo sapiens, UniProt P54760); value = 99.5%
target = ABL1 (Homo sapiens, UniProt P00519); value = 99.2%
target = CAMK2B (Homo sapiens, UniProt Q13554); value = 110%
target = EPHB1 (Homo sapiens, UniProt P54762); value = 95.9%
target = PDPK1 (Homo sapiens, UniProt O15530); value = 104%
target = Cyclin-dependent kinase 6, with cyclin D3 (CDK6, Homo sapiens, UniProt Q00534); value = 101%
target = STK17A (Homo sapiens, UniProt Q9UEE5); value = 93.5%
target = AXL (Homo sapiens, UniProt P30530); value = 110%
target = TSSK2 (Homo sapiens, UniProt Q96PF2); value = 91.4%
target = STK16 (Homo sapiens, UniProt O75716); value = 97.5%
target = SRMS (Homo sapiens, UniProt Q9H3Y6); value = 103%
target = Cyclin-dependent kinase 4, with cyclin D3 (CDK4, Homo sapiens, UniProt P11802); value = 96.2%

Series 2
Target: Microphthalmia-associated transcription factor, full length (MITF, Homo sapiens, UniProt O75030-10, residues 1-413)
Technique: protein-binding microarray
Form: hairpin DNA
Sample: in vitro
Concentration: not given
Notes: whole hairpin DNA, median over replicate spots
Baseline: not given
Reading: higher = stronger binding
Endpoint: median fluorescence
Sequence = CACTTAGCACGTGATTTTGGTCCTCCAAAATCACGTGCTAAGTGACACTC (5mC at 34); value = 15300 a.u.
Sequence = GAGGCCTAGCACGTCGTGCCTCCTGGCACGACGTGCTAGGCCTCACACTC (5mC at 15 29); value = 5820 a.u.
Sequence = GAGGCCTAGTACGTGCTGCCTCCTGGCAGCACGTACTAGGCCTCACACTC; value = 6250 a.u.
Sequence = GAGGCCTAGCACGTCGTGCCTCCTGGCACGACGTGCTAGGCCTCACACTC (5mC at 15); value = 5770 a.u.
Sequence = GAGGCCTAGCCCGTGCTGCCTCCTGGCAGCACGGGCTAGGCCTCACACTC; value = 7300 a.u.
Sequence = CACTTAGCACGTCGTTTTGGTCCTCCAAAACGACGTGCTAAGTGACACTC (5mC at 13 31); value = 4860 a.u.
Sequence = GAGGCCTAGGACGTGCTGCCTCCTGGCAGCACGTCCTAGGCCTCACACTC (5mC at 35); value = 6030 a.u.
Sequence = GAGGCCTAGCACGCGCTGCCTCCTGGCAGCGCGTGCTAGGCCTCACACTC; value = 13200 a.u.

Series 3
Target: RING finger protein unkempt homolog, zinc fingers 1-6, GST-SBP tag (UNK, Homo sapiens, UniProt Q9C0B0, residues 30-357)
Sequence of UniProt Q9C0B0 (30-357, looked up): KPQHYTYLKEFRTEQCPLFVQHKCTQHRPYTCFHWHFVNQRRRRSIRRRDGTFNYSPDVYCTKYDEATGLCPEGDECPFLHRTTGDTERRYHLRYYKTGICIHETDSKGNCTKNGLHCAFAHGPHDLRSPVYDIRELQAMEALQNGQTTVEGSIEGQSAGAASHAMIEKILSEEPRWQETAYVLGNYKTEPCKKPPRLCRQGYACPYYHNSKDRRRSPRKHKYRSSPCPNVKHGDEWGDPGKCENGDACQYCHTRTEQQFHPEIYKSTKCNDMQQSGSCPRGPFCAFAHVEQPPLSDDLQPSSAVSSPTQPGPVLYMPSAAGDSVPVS
Technique: RNA Bind-n-Seq
Form: RNA
Sample: in vitro
Concentration: not given
Notes: RNA with constant flanks, human-mouse chimeric sites, ends assumed
Baseline: input RNA pool
Reading: higher = stronger binding
Endpoint: bound/input enrichment
Shared flanks, not repeated: GGGAGUUCUACAGUCCGACGAUC … CAACAGAGGAUUGAGCAUCA
Sequence = UGACAAGGGCACUGCAGAGCCAUGCCUUUCCUUGACAUACAGAAAAAGCUGGGCAUCAACAUAGAUCGGCACUUUAUGUUCCUAAGCGCAGAACAGCCCUACAAGAUCGCCGCUCGGUGC; value = 0.0761 ratio
Sequence = CGGAAGUUCUUGAUUUAUCAUUUUUCUCUUUUCUUUCUUUCCUUUAGGAAAAGCCUAAAGAUUAGACUGUAAGAAAAACAGAAGCCAUGUUUCGAAGACCUGUGUUACAGGUAUUUCGUC; value = 0.173 ratio
Sequence = GAUGAUAAUCACACAAACAAGUCACUGUUAUGUGACCAGCCUUGGGAUUCUUCUCCUGAUUAAUAUUCUCCCUGGAACCACUGGUCAAGGGGAAUCAAGACGACAAGAACCCGGGGACUU; value = 0.129 ratio
Sequence = AAAGCCCAAGUAUUUUGAAAAAACUCGAACAGAUUUGACAAGGGUAGCCAGCUUGGAGUCUAGCAACUUUGCCAAUGGUUUACCAAUCUGGGGGCUUGUUUUUCUUUCCCUUCCUUAAAU; value = 0.282 ratio
Sequence = UCGGAUGCUGUGCUGGGUCACUUUUCAUAUCCAGAUCCUUCACAGUGGACAGAUGAAGAACUGGGAAUCCCUCCUGAUGACGAGGACUGAAGGUGUAAACUCUCUGGCACUCUGUACGCA; value = 0.351 ratio
Sequence = GUAUUUGUGCGCUCCCCACUCGUGUUUUUAAGUGUAUAAGAUGUAUAUACAUGUAUUUACAAUUGAGCUUUUGUUACAUAAUGCUGAAAUGCUACUGGAGAUUAUGAAAAAUGUUUCAAU; value = 0.152 ratio
Sequence = CUGAAAAACACAGAUAUCAAAGUUGUUGACUUUGGAAGUGCAACAUAUGACGACGAACAUCACAGUACUUUGGUGUCUACCCGGCACUACAGAGCUCCCGAGGUCAUUUUGGCUUUAGGU; value = 0.284 ratio
Sequence = CGGAGCCCCUCCCUCUCCCAGGCCCGAGAUAUAACCCACCAGUGCCUUUUGUCUUCCUGUCAGCUCUGUCAAUCACGCCUGUCCUCUCACGCCCACACCAAGUGCCCAAAGUGGGGAGGG; value = 0.393 ratio

Mixed results
SMILES = Cn1cncc1[C@@](O)(COc1ccc(C#N)cc1-c1ccc(OC(F)(F)F)cc1)c1ccc(C#N)cc1; target = Tyrosine-protein kinase ABL1, phosphorylated (ABL1, Homo sapiens, UniProt P00519, E255K); effect on = binding; technique = competition with immobilised ligand; concentration = 1 µM; endpoint = remaining binding; value = 72%

For quick reference, copied from above (series 3):
Sequence = UCGGAUGCUGUGCUGGGUCACUUUUCAUAUCCAGAUCCUUCACAGUGGACAGAUGAAGAACUGGGAAUCCCUCCUGAUGACGAGGACUGAAGGUGUAAACUCUCUGGCACUCUGUACGCA; value = 0.351 ratio
Sequence = GUAUUUGUGCGCUCCCCACUCGUGUUUUUAAGUGUAUAAGAUGUAUAUACAUGUAUUUACAAUUGAGCUUUUGUUACAUAAUGCUGAAAUGCUACUGGAGAUUAUGAAAAAUGUUUCAAU; value = 0.152 ratio
